Published values of several laboratories.
A part holds a random share of what one study measured.

Series 1
Target: Ras GTPase-activating protein-binding protein 1, RRM domain (G3BP1, Homo sapiens, UniProt Q13283)
Sequence of UniProt Q13283 (whole entry, looked up): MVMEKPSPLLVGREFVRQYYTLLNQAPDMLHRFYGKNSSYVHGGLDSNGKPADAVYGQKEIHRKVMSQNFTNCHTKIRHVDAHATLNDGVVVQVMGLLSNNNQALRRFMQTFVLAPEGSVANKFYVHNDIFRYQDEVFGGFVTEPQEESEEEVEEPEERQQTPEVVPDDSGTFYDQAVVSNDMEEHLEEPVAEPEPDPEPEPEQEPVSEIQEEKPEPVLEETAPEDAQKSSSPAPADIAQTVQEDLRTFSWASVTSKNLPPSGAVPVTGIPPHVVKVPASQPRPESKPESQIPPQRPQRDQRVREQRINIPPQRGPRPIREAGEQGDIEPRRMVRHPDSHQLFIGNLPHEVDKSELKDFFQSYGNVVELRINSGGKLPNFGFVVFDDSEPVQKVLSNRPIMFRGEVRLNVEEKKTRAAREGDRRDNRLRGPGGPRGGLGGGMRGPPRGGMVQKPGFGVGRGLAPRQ
Method: RNA Bind-n-Seq
Form: RNA
Medium: in vitro
Concentration: 1 µM
Setting: whole 134-nt RNA, ends assumed
Together with: 150 mM KCl
Baseline: input library
Reading: higher = stronger binding
Constant ends, left off below: GGGAGUUCUACAGUCCGACGAUC … UGGAAUUCUCGGGUGUCAAGG
Oligonucleotide	log2 enrichment
CAAGUCCUGUGCUACACAUCGUAUGUACCGAAUCGGUUUGGGUUUGGGGUUUGGGGAAAGUAUUAUGUUACGCCGUUCGGAUCUGCACUU	-0.293
CCUGUGCUACACAUCGUAUGUACCGAAUCAAAUUUUUAAACCCCCCCAAAUUUUUUUAAAAAAGUAUUAUGUUACGCCGUUCGGAUCUGC	-0.483
CACAGACAACACGCACCCACACAGACGCAGAGGGAAGGGGUUGGGAUGGGGACAGGGUGCACAGCAGGGCGGGGUAGGACCCCAGCCCCU	0.118
UGGAAUAAGCCUGGUGCUUUCUGGCUAUGUUUGUCAUAGGCUGACCUGGAUAUCACCGAAAUAAACAAACUAACAGCAGAAGCUAUUCAG	-0.117
UCCUGUGCUACACAUCGUAUGUACCGAAUCGGGGCCCCCGGGGCCCCCGGGGCCCCCGGGAAAGUAUUAUGUUACGCCGUUCGGAUCUGC	-0.804

Series 2
Target: Sal-like protein 4, full length isoform A (SALL4, Homo sapiens, UniProt Q9UJQ4, residues 1-1053)
Sequence of UniProt Q9UJQ4 (whole entry, looked up): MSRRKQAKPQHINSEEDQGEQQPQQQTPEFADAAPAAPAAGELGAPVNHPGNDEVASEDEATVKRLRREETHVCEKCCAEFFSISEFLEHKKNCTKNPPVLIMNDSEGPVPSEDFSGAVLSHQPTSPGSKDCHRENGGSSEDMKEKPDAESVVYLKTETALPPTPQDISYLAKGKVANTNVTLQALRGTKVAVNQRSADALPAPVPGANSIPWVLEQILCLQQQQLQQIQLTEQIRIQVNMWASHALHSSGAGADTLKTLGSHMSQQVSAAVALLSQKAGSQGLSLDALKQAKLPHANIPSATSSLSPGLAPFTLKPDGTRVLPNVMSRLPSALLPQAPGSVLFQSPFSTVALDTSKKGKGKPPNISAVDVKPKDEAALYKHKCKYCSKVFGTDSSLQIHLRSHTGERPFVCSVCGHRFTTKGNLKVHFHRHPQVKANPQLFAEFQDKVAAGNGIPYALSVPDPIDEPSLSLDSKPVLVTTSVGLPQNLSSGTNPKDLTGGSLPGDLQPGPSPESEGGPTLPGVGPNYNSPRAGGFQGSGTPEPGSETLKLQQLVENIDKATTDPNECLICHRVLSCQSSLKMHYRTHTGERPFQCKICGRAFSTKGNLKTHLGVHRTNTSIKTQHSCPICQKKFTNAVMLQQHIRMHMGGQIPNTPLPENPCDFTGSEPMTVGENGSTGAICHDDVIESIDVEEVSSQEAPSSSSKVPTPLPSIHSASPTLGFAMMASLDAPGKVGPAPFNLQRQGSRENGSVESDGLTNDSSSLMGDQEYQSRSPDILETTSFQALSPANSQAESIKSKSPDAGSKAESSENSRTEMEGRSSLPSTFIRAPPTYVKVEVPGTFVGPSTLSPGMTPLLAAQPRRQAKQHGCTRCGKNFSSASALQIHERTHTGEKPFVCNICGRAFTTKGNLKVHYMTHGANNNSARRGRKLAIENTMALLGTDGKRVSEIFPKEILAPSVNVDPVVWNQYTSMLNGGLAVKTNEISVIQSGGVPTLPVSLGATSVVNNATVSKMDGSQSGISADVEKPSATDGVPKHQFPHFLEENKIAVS
Method: universal PBM
Form: double-stranded DNA, one strand shown
Medium: in vitro
Concentration: 600 nM
Setting: 8-mer, flanks averaged, mean of replicates
Reading: higher = stronger binding
Oligonucleotide	E-score
AACCACCG	-0.125
CCATAGGG	-0.0995
CCAATACG	0.0513
CGTTGCTC	-0.199
ATACTGTG	-0.0163
GGACATTA	0.181
AAGAGAGG	-0.0148
CGCTAGTA	0.0144

Series 3
Substance: PhoQ, residues 284 288 289 292 302 303 SQSLSM
Method: Sort-seq
Refers to: YFP reporter
Medium: E. coli
Setting: PhoQ-PhoP variant library
Together with: 10 µM Mg2+
Baseline: high Mg2+ state
Reading: higher = stronger signaling
target	fold induction
PhoP, residues 12 14 15 18 19 VHTVL (Escherichia coli, UniProt P23836)	4.24
PhoP, residues 12 14 15 18 19 ICWRQ (Escherichia coli, UniProt P23836)	3.49
PhoP, residues 12 14 15 18 19 TQCLL (Escherichia coli, UniProt P23836)	4.26

Series 4
Target: Histone acetyltransferase KAT6A, both winged helices, GST fusion (KAT6A, Homo sapiens, UniProt Q92794, residues 1-181)
Method: protein binding microarray
Form: double-stranded DNA, one strand shown
Medium: in vitro
Concentration: not given
Setting: 8-mer, flanks averaged, mean of 2 arrays, mostly near background
Baseline: not given
Reading: higher = stronger binding
Residues (chain): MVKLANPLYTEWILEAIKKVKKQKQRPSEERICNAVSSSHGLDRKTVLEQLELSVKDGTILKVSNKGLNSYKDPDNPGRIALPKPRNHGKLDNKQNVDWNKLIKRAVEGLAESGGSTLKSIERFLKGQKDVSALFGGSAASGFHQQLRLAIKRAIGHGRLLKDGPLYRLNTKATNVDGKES
Oligonucleotide	E-score
CTAATGGA	-0.106
CTAGATTC	-0.216
CCTATCTC	-0.218
CACGCGAG	0.193
GGGATACC	0.0797
GACCCCGA	0.0293

A few entries again (series 4):
Oligonucleotide	E-score
CTAGATTC	-0.216
